Experimental data gathered from unrelated publications.
Each numbered part is a random draw from the data of one study; scales do not carry over between parts. Several values in a cell are separate wells, animals, samples, runs or records.
Chain of UniProt P54646 (whole entry, looked up): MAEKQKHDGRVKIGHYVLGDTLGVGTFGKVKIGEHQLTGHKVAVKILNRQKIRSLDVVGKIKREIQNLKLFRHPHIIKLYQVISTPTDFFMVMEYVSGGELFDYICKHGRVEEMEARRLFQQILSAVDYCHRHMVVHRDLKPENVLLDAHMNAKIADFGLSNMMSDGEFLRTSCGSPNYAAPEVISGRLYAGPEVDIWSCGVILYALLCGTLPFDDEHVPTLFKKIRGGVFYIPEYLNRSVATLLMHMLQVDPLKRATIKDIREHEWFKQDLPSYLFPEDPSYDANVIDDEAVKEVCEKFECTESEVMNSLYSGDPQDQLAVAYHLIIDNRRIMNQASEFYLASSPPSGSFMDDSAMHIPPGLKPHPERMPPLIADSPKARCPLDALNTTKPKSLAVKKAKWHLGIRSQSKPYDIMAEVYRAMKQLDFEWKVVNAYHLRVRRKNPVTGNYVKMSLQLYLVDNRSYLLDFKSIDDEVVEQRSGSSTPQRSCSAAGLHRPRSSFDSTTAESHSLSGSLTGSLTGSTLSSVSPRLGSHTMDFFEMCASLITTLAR
Chain of UniProt Q9UF33 (whole entry, looked up): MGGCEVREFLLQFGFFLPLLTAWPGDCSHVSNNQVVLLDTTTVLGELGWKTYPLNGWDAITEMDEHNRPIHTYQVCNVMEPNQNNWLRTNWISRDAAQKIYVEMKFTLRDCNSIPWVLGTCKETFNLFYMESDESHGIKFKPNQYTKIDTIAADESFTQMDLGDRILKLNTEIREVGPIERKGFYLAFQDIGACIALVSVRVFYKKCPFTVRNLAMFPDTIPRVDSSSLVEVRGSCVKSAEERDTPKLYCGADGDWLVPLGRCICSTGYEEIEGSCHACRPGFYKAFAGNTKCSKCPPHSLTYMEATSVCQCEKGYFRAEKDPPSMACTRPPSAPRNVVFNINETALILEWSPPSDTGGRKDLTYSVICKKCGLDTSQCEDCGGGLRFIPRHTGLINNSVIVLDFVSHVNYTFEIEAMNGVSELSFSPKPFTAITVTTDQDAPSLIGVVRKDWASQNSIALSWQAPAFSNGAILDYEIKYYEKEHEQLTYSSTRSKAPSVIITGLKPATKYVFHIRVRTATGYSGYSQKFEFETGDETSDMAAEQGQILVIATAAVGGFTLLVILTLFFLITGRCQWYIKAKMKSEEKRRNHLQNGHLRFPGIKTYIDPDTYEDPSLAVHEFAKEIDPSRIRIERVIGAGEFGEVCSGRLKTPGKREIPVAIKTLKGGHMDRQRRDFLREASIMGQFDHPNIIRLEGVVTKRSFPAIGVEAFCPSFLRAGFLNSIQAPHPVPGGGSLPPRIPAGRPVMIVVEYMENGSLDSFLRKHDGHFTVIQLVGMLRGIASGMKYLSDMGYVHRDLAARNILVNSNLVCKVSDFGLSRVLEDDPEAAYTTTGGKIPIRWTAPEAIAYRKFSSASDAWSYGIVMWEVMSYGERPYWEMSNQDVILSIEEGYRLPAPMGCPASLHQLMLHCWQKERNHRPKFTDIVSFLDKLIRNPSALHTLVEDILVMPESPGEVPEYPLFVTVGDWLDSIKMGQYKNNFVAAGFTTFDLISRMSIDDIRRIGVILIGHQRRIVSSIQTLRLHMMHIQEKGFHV
Chain of UniProt P29597 (whole entry, looked up): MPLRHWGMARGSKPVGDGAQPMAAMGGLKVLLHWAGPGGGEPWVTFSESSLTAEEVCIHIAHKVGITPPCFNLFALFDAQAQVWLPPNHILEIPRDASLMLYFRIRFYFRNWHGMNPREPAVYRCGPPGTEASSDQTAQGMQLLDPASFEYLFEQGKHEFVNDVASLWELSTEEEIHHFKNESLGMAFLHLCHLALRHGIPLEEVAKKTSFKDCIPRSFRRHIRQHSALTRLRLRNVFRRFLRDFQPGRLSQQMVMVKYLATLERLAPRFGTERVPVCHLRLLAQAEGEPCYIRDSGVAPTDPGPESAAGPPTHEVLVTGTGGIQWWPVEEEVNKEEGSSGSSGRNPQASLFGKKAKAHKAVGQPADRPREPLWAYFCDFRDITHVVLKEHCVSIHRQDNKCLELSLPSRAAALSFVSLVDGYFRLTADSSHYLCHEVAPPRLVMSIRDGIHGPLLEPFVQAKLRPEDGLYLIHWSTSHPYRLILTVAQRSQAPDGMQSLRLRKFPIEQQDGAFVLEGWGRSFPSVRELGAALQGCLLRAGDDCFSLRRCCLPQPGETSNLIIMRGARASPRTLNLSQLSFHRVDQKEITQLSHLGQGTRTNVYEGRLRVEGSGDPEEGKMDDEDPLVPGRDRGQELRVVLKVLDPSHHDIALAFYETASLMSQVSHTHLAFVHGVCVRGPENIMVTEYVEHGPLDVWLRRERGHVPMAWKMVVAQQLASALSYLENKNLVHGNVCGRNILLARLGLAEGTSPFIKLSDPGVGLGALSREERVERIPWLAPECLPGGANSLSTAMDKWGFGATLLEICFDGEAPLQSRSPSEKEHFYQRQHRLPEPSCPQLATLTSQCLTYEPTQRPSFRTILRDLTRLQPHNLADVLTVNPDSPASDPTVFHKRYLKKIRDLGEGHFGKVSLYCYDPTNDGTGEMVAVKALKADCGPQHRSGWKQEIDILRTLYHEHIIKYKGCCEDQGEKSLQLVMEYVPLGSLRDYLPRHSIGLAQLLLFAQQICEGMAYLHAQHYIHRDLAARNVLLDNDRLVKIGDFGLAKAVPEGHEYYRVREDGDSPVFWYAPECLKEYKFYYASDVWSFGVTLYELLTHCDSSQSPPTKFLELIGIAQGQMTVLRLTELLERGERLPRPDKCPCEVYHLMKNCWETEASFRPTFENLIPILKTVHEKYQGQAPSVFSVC

Sample 1 — effect on: cell-free assay; method: competition with immobilised ligand; concentration: 1 µM
SMILES: O=C1NC(c2ccccn2)Sc2ccccc21 (centres unmarked)
It gave 100% for remaining binding (EPHB4 (Homo sapiens, UniProt P54760)).
It gave 100% for remaining binding (Tyrosine-protein kinase ABL1, phosphorylated (ABL1, Homo sapiens, UniProt P00519, F317L)).
For MAPK10 (Homo sapiens, UniProt P53779): remaining binding read 100%.
The remaining binding was 83% (RIOK2 (Homo sapiens, UniProt Q9BVS4)).
The remaining binding was 68% (Tyrosine-protein kinase JAK1, JH1 (JAK1, Homo sapiens, UniProt P23458)).
For NUAK2 (Homo sapiens, UniProt Q9H093): remaining binding read 100%.
For Ribosomal protein S6 kinase alpha-1, N-terminal kinase domain (RPS6KA1, Homo sapiens, UniProt Q15418): remaining binding read 100%.
It gave 96% for remaining binding (MAPK7 (Homo sapiens, UniProt Q13164)).
TIE1 (Homo sapiens, UniProt P35590) — remaining binding: 65%.
For EPHA6 (Homo sapiens, UniProt Q9UF33): remaining binding read 79%.
The remaining binding was 100% (PIM3 (Homo sapiens, UniProt Q86V86)).
It gave 100% for remaining binding (NTRK1 (Homo sapiens, UniProt P04629)).
It gave 96% for remaining binding (PRKD2 (Homo sapiens, UniProt Q9BZL6)).
The remaining binding was 100% (PRKCH (Homo sapiens, UniProt P24723)).
For RPS6KB1 (Homo sapiens, UniProt P23443): remaining binding read 75%.
For PRKAA2 (Homo sapiens, UniProt P54646): remaining binding read 100%.
For WNK2 (Homo sapiens, UniProt Q9Y3S1): remaining binding read 100%.
For ULK3 (Homo sapiens, UniProt Q6PHR2): remaining binding read 100%.
It gave 86% for remaining binding (Non-receptor tyrosine-protein kinase TYK2, JH2 (TYK2, Homo sapiens, UniProt P29597)).
It gave 71% for remaining binding (TAOK2 (Homo sapiens, UniProt Q9UL54)).
HUNK (Homo sapiens, UniProt P57058) — remaining binding: 80%.
MTOR (Homo sapiens, UniProt P42345) — remaining binding: 100%.
It gave 66% for remaining binding (TSSK1B (Homo sapiens, UniProt Q9BXA7)).
It gave 100% for remaining binding (MAPK13 (Homo sapiens, UniProt O15264)).
The remaining binding was 95% (MARK3 (Homo sapiens, UniProt P27448)).

Sample 2 — effect on: enzyme activity; mode: inhibitor; concentration: 0.5 µM; baseline: control
Target: Inhibitor of nuclear factor kappa-B kinase subunit alpha (CHUK, Homo sapiens, UniProt O15111)
Chain of UniProt O15111 (whole entry, looked up): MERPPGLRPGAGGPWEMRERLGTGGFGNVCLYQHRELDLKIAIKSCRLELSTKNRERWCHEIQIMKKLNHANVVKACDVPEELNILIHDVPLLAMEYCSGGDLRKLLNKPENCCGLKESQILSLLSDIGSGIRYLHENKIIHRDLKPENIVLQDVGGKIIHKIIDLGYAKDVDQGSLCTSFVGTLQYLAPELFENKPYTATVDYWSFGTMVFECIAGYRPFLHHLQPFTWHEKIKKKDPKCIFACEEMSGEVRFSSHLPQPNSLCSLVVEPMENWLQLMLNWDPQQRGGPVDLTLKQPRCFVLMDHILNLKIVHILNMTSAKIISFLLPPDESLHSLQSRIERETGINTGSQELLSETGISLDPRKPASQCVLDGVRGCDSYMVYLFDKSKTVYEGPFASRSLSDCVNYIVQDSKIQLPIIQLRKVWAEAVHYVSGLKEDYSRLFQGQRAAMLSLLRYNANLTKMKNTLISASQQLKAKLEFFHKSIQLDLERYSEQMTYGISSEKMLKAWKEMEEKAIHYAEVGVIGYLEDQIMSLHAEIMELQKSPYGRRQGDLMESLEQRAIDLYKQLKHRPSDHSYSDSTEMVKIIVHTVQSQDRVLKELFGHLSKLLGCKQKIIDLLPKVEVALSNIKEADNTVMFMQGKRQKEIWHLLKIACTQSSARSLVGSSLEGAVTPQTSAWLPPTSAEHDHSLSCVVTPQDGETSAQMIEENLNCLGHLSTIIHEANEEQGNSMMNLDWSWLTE
`O=C1Nc2ccccc2/C1=C\c1c(Cl)[nH]c2ccccc12` has a remaining activity of 94.2%.
`O=C1Nc2ccc(Br)cc2/C1=C/c1cc2c([nH]1)CCCC2` has a remaining activity of 99.1%.
`O=C1NC(=O)c2c1c1c3ccccc3[nH]c1n1cncc21` has a remaining activity of 100%.
`c1ccc2c(-c3ccncc3)c[nH]c2c1` gave a remaining activity of 107%.
With `O=C(c1cc2cc(O)ccc2[nH]1)c1cc2cc(O)ccc2[nH]1` the remaining activity was 103%.
With `O=Nc1c(-c2c(O)[nH]c3cc(Br)ccc23)[nH]c2ccccc12` the remaining activity was 104%.
The remaining activity of `c1ccc(-c2n[nH]c3c2oc2ccccc23)cc1` is reported as 92.3%.
With `COc1ccc(COc2ccc(Cc3cnc(N)nc3N)cc2OC)cc1` the remaining activity was 94.7%.
For `Oc1cccc(-c2nc(N3CCOCC3)c3oc4ncccc4c3n2)c1`, the remaining activity was 94.8%.
The remaining activity of `CN(C)S(=O)(=O)c1ccc2c(c1)/C(=C/c1cc3c([nH]1)CCCC3)C(=O)N2` is reported as 115%.
For `COc1cccc(-c2cc(=O)c3ccccc3o2)c1N`, the remaining activity was 104%.
`N#Cc1cnc2cnc(NCc3cccnc3)cc2c1Nc1ccc(F)c(Cl)c1` gave a remaining activity of 96.3%.
For `CCCCc1c(-c2ccc(OC)cc2)[nH]c2nccnc12`, the remaining activity was 97.3%.
`O=c1cc(N2CCOCC2)oc2c(-c3ccccc3)cccc12` has a remaining activity of 104%.
`O=C1Cc2c([nH]c3ccc(Br)cc23)-c2ccccc2N1` has a remaining activity of 98.6%.
The remaining activity of `Cc1cc(Nc2cc(N3CCN(C)CC3)nc(Sc3ccc(NC(=O)C4CC4)cc3)n2)[nH]n1` is reported as 99.4%.
`COc1ccc2c(c1)c(C1=C(c3c[nH]c4ccccc34)C(=O)NC1=O)cn2CCCN(C)C` has a remaining activity of 96.5%.
`Cc1ccc(S(=O)(=O)/C=C/C#N)cc1` gave a remaining activity of 87.3%.
The remaining activity of `O=C1NC(=O)c2c1c1c3ccccc3[nH]c1c1[nH]c3cc(Br)ccc3c21` is reported as 81.5%.
`CCCNC(=O)Nc1ccc(Oc2ncnc3cc(OC)c(OC)cc23)cc1Cl` gave a remaining activity of 84.9%.

Sample 3 — SMILES: C=CCc1ccc(O)c(-c2ccc(O)c(CC=C)c2)c1; effect on: chloride current; method: whole-cell patch clamp
Target: Anoctamin-1 (ANO1, Homo sapiens, UniProt Q5XXA6, del476-501)
Chain of UniProt Q5XXA6 (whole entry, unmodified, looked up): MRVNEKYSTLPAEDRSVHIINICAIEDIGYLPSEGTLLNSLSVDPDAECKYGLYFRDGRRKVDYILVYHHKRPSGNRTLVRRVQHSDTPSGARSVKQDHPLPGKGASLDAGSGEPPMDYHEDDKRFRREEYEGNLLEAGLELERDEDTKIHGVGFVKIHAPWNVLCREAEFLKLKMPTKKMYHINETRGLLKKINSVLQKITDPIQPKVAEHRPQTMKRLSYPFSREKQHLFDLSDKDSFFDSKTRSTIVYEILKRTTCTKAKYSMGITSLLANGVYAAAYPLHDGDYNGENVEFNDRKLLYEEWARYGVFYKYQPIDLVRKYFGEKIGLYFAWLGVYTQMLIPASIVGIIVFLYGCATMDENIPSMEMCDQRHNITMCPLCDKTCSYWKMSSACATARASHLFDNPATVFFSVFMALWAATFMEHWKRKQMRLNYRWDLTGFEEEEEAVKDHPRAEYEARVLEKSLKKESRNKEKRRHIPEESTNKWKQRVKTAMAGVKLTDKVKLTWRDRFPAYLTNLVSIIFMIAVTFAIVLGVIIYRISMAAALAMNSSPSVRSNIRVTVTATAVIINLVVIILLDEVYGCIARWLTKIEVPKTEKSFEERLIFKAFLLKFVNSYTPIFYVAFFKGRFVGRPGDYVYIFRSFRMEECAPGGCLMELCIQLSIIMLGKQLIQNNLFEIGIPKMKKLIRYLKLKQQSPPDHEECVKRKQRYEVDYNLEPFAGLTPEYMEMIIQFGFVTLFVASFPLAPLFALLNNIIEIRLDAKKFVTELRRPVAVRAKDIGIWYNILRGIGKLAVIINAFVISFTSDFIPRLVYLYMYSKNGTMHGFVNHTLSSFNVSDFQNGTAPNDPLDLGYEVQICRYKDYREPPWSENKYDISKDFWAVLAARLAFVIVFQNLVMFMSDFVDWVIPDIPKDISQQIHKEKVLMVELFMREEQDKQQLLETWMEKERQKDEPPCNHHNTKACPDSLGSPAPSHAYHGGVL
The normalised current was 0.0701 (3 µM, 40 mV, 300 nM free Ca2+, with: honokiol and magnolol 10 µM).
The normalised current was 0.104 and 0.11 (100 µM, 100 mV, 300 nM free Ca2+).
For 3 µM, -20 mV, 300 nM free Ca2+, with: honokiol and magnolol 10 µM: normalised current read -0.0156.
It gave -0.0017 for normalised current (1 µM, 0 mV, 300 nM free Ca2+).
The normalised current was -0.0059 (30 µM, -60 mV, 300 nM free Ca2+, with: honokiol and magnolol 10 µM).
The normalised current was -0.0288 (3 µM, -60 mV, 300 nM free Ca2+, with: honokiol and magnolol 10 µM).
For 1 µM, 100 mV, 300 nM free Ca2+: normalised current read 0.973.
10 µM, 0 mV, 300 nM free Ca2+ — normalised current: -0.0004.
The normalised current was 0.0397 and 0.0379 (30 µM, 60 mV, 300 nM free Ca2+).

Sample 4 — mode: agonist
Target: Beta-1 adrenergic receptor (ADRB1, Homo sapiens, UniProt P08588)
Chain of UniProt P08588 (whole entry, looked up): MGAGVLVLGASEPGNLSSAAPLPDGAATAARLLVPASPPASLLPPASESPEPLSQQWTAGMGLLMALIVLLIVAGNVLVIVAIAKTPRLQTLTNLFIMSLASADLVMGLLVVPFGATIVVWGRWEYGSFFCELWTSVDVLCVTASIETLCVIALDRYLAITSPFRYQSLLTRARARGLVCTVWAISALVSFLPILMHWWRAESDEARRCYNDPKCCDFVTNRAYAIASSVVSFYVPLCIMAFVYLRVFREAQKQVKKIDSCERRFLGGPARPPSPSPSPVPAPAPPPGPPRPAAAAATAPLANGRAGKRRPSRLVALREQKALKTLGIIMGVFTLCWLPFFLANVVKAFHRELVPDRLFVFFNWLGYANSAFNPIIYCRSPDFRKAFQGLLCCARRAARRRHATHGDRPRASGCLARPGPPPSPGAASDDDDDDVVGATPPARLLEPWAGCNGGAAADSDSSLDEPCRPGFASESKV
`CCOC(=O)COc1ccc2c(c1)C[C@@H](NC[C@H](O)c1cccc(Cl)c1)CC2` has an Emax of 89.2%.
`Cc1cccc(OCC(O)CNC(C)C)c1` (centres unmarked) has an Emax of 62.7%.
With `COc1ccccc1OCC(O)CN1CCN(CC(=O)Nc2c(C)cccc2C)CC1` (centres unmarked) the Emax was 70.5%.
`COc1ccccc1N1CCN(CCN2C(=O)NC(C)(C)C2=O)CC1` gave an Emax of 64.7%.
`COc1ccccc1N1CCN(C(=O)C[C@@H]2O[C@H](CNC(=O)NC(C)C)[C@@H](O)[C@H]2O)CC1` has an Emax of 43.4%.
`CC(C)(C)NCC(O)COc1ccccc1OCC1CCCO1` (centres unmarked) gave an Emax of 98.7%.
`CC(COc1ccccc1)NC(C)C(O)c1ccc(O)cc1` (centres unmarked) has an Emax of 90.3%.
`COc1ccccc1N1CCN(CC[C@@H]2CC[C@H](O)[C@@H](C(=O)Nc3ccccc3)O2)CC1` gave an Emax of 91.5%.

A few entries again (sample 3):
The normalised current was 0.0701 (3 µM, 40 mV, 300 nM free Ca2+, with: honokiol and magnolol 10 µM).
It gave -0.0017 for normalised current (1 µM, 0 mV, 300 nM free Ca2+).
For 1 µM, 100 mV, 300 nM free Ca2+: normalised current read 0.973.
10 µM, 0 mV, 300 nM free Ca2+ — normalised current: -0.0004.
The normalised current was -0.0059 (30 µM, -60 mV, 300 nM free Ca2+, with: honokiol and magnolol 10 µM).
For 3 µM, -20 mV, 300 nM free Ca2+, with: honokiol and magnolol 10 µM: normalised current read -0.0156.
